# Assay results gathered from unrelated publications.
# Every numbered part comes from another study and shows a few of its results, in no order.

# Set 1
# Target: Interferon regulatory factor 5, full length, phosphomimetic (IRF5, Homo sapiens, UniProt Q13568-2, residues 1-514, K96S/S451D/S453D/S456D/S462D)
# Method: protein-binding microarray
# Form: double-stranded DNA, one strand shown
# Matrix: in vitro
# Concentration: 250 nM
# Setting: 60-bp whole probe
# With: salmon DNA 0.4 mg/ml
# Reference: random background probes
# Direction: higher = stronger binding
# Constant ends, left off below: GCCTAGCAC … GTCTTGATTCGCTTGACGCTGCTG
Oligonucleotide,log fluorescence [z-score]
TGGAAACTCGTATGTGACCTTGTGCTA,0.00948
TTAGGTTTCGGTTTCGGCTAGTGCTAG,11.3
TCAGGTATCGGTCTCGGTTAGTGCTAG,6.05
ATCTTCATGAAGTTTTAATAAGTGCTA,0.766
TTACGTTTCGGACTGGGTTAGTGCTAG,5.78
TCATGGTTCTTGCTTGGTACTGTGCTA,-0.136
GACGGTTTCTGGACTGGGGACGTGCTA,0.837
TTAGATATCGGGTTACGATTAGTGCTA,2.96
TTGGATTTCAGTCTCGATTAGTGCTAG,2.45
TCAGGAAATGGGAAACCCACTGTGCTA,0.0533
CTGCTCTGTGCACAGAAGACGTGCTAG,-0.416
GACGGTTTCGGTTCCAGGACGTGCTAG,9.42
GACGGTATCGGTATCGGTACGTGCTAG,8.52
TTAGAACTGGGGCTTCGATTAGTGCTA,0.0936
GACGGTTTCCTACTGCTAACGTGCTAG,0.243
GATGATTTCAGTATCGAGACGTGCTAG,4.33
TTAGATTTCAGTTTCGATTTGTGCTAG,9.48
TTAGGTTTCGACTTTCGCTTAGTGCTA,8.85
TTAGCTATCCTTATCCTTTAGTGCTAG,0.524

# Set 2
# Target: RNA binding protein fox-1 homolog 2, RRM domain, GST-SBP tag (RBFOX2, Homo sapiens, UniProt O43251-10, residues 100-194)
# Method: RNA Bind-n-Seq
# Form: RNA
# Matrix: in vitro
# Concentration: 365 nM
# Setting: natural RNA segment, single round, ends assumed
# Reference: no-protein control
# Direction: higher = stronger binding
# Constant ends, left off below: GGGAGUUCUACAGUCCGACGAUC … UGGAAUUCUCGGGUGCCAA
# Residues (chain): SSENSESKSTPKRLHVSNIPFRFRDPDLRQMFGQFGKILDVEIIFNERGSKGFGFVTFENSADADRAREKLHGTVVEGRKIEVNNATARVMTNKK
Oligonucleotide,RBNS enrichment (R)
UGAGUCUUGGAAAACACCCCAAACCCGGAAAUGUGUGGGAAAAAGAAAACAAAAACUUUCCAAAUUCCACCAGUCCUGUGUAGUUUGUUCGGGGUGGGUGCUCUCAGUGG,1.21
GGAAAAUGAACCUCAGCCCAUUAGGCAGGAAAAGUUGAUAUUUAAUAAACAAGGAAAGAGUGAACUGGACCCCAAAUGGUACUCUUGUCAGCUGUUUCUGUCCUCAGAAG,0.336
UUCCCUGCAGUAAUUGUAUGAUCUCACCCAGUGUGCAAUUUGUGAAAAUGAACCAAAUGUCAUUACUUUUGUCUUAAAGAAAAGUCUAUUUCAAGAAUAUGAACAGCAGU,0.495
GACCAGGCCCUGCCUAGGCCCUGCCGCAGAACCACCAUCCCUGGGAGGCCCUGCAGAGCCCACCUGUGGGGAAAGAGAAGGGGCAGCUUCCGGAUUUUCUUUUGGGGGUU,0.271
GGCCUUUCCAUAGAGAGGCCCUGGAGUCUAAAAUUAUGAGAACAAUUAAUUUAUUUGUGUCUUCUAUUAUGAUCUCGUUUUGACAAUAAAAAUCCUUACUACUUUCUCAA,0.501
ACUUCAUUAGAUUUAAUUUCUAGGCCAAGAUGUUACUUUUUAAAGUGCAGUUUAAGGUUCAGGCAUGCAUUCUGGCUCAUAGUGGUUGAAAGUAAUUUAAAUUAGUGGGA,3.75
UGCCGAAGGGGACAGACUCCACUGCCAGACGGCCAGCCGUUUGCUGUCCUGCCGCCCGGCUCAGUCGGCCAGACUUCCUCUAGGAGUGGUGCUGCUACCUUGUAUGUUUA,1.84
AUUUCCAGAUCUUUGGCAUUUUCCCCGCGCUGACUCUUUGAUGAUCCUUCACUGUGGCCUUUUCAAGCUCAGCUGUUCCUGUUGUAUUUGAGACGAGGGUGAGGGAAUGU,0.219
GCCUAGAUUCUGAGAUCUUCCCAUUCUAGGCCUACAAGCACUACUUGCUGUAGCUGAGACUUGUCUAGAGUCCUUUGUUUUGCACUUUUGACCCACCCCUUCCUGGAUCA,0.851
CCUCACGCAGUUCGACUGGGAAAAUACAGAAGGGCUGCAGAGGCAAUAAGAAGGAAGAAAGGGAAGUCCACGGCAGGCAAAGGGUGUGGCUGGCUCUCUGAACAUCAGGA,0.701
CUUUGUUCAUUCUAGCCACGGGGAUGAAAGGGAUCUUUUGCAUUGCAGAGAUUUUAUAUAUAUUUUGUUUGUAAUGAGCCAUUCUCAAUAAACAUUAUUCUCACUGCAAA,0.753
AAAAACAAUCCUGGGUACGUAUGUUGGCUGGAAAACCACAAUGGACCCUGCCACUGCUUCUUGCCCUGAGGUUUGGAAGCUGAGAGUUAUAGAAGCCAAUUCACCAGGAG,0.296

# Set 3
# Target: Histone acetyltransferase KAT6A, winged helix 2, GST fusion (KAT6A, Homo sapiens, UniProt Q92794, residues 85-181)
# Method: protein binding microarray
# Form: double-stranded DNA, one strand shown
# Matrix: in vitro
# Concentration: not given
# Setting: 8-mer, flanks averaged, mean of 2 arrays, mostly near background
# Reference: not given
# Direction: higher = stronger binding
# Target sequence (chain): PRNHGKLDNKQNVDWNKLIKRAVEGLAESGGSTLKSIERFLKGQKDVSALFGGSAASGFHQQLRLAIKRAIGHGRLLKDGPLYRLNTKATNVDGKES
Oligonucleotide,E-score
ACCAAGCG,0.013
CCATTTCG,-0.0891
ACACCAAG,-0.156
CCCTACGA,-0.157
GGGATAAA,0.101
GGCGCCGA,0.184
AAGGCCTA,-0.151
CGCCCGCG,0.135
GACTTGCC,-0.0549
GGAAGGCC,-0.0408
GCCGGAAC,0.18
CCCTCTAA,0.0536
ACGGCGTC,0.0856
GAAGCTCA,-0.0248
AGCTAACA,-0.0284
AATTAGCT,-0.064
AGATTTTC,0.0576
GTAGAACA,-0.0942
GCTTTTCC,0.0628
CCGTTCTA,0.0422
AGGCAGGC,0.14
GCACTCAC,-0.0346
AATTACAT,0.153
AAAACTCT,0.104

# Set 4
# Target: Fragile X messenger ribonucleoprotein 1, C-terminal low-complexity region (Fmr1, Mus musculus, UniProt P35922)
# Method: RNA Bind-n-Seq
# Form: RNA
# Matrix: in vitro
# Concentration: 200 nM
# Setting: whole 134-nt RNA, ends assumed
# With: 150 mM LiCl
# Reference: input library
# Direction: higher = stronger binding
# All molecules: 7-deaza-guanosine replaces G
# Constant ends, left off below: GGGAGUUCUACAGUCCGACGAUC … UGGAAUUCUCGGGUGUCAAGG
Oligonucleotide,log2 enrichment
AAGUCCUGUGCUACACAUCGUAUGUACCGAAUCGGAAAAGGGAAAAGGAAAAGGGGAAAGUAUUAUGUUACGCCGUUCGGAUCUGCACUU,-0.354
ACCAUGCAGGUGGGCAUCUUUGGGAAGUGGGGCAAGGGGGGGAAAGGGAGGGGGGUAACACUUUGGGAACAGGUGGUCCCAGGUCGUUUC,1.29
AAAAAAAGUGUGUAUUAGGAGGAGAGAGAGGAAAAAAAGAGGAAAGAAGGAAAAAAAAAAGAAUUAAAAAAAAAAAAAAGAAAAACAGAA,0.875
UAACUUUAGAGGAGGAUCUGAUGGAUAUGGCAGUGGACGUGGAUUUGGGGAUGGCUAUAAUGGGUAUGGAGGAGGACCUGGAGGUGGCAG,0.478
UGGGAGGUGGAUUUUGUUUAUUUUUUUAGCUCAUUUCCAGGGGUGGGAAUUUUGUUUUAAUAUGUGUCAUGAAUAAAGUUGUUUUUGAAA,-0.28
GUCCUGUGCUACACAUCGUAUGUACCGAAUCGGGAAAGGGAAAAAGGGAAAAAAAGGGAAAGUAUUAUGUUACGCCGUUCGGAUCUGCAC,0.436
AGUCCUGUGCUACACAUCGUAUGUACCGAAUCGGGGCCCCGGGGCCCCGGGCCCCGGGAAAGUAUUAUGUUACGCCGUUCGGAUCUGCAC,-1.63
UCCUGUGCUACACAUCGUAUGUACCGAAUCGGGAAAAAAAGGGUUUUUGGGUUUUUGGGAAAGUAUUAUGUUACGCCGUUCGGAUCUGCA,-2.31
GUCCUGUGCUACACAUCGUAUGUACCGAAUCGGGGUGGGGUUUGGGGUUUUUUUGGGGAAAGUAUUAUGUUACGCCGUUCGGAUCUGCAC,-0.767
UGUGCUACACAUCGUAUGUACCGAAUCGGGAAAAAAAGGGGAAAAAAAGGGAAAAAAAGGGGAAAGUAUUAUGUUACGCCGUUCGGAUCU,0.605
AAGUCCUGUGCUACACAUCGUAUGUACCGAAUCGGUUUGGUUUUUGGAAAAAAAGGAAAGUAUUAUGUUACGCCGUUCGGAUCUGCACUU,-2.09

# Excerpt of the above (set 1):
Oligonucleotide,log fluorescence [z-score]
TTACGTTTCGGACTGGGTTAGTGCTAG,5.78
TCATGGTTCTTGCTTGGTACTGTGCTA,-0.136
GACGGTTTCTGGACTGGGGACGTGCTA,0.837
TTAGATATCGGGTTACGATTAGTGCTA,2.96
TTGGATTTCAGTCTCGATTAGTGCTAG,2.45
TCAGGAAATGGGAAACCCACTGTGCTA,0.0533
CTGCTCTGTGCACAGAAGACGTGCTAG,-0.416
GACGGTTTCGGTTCCAGGACGTGCTAG,9.42
GACGGTATCGGTATCGGTACGTGCTAG,8.52
